Experimental data gathered from unrelated publications.
Parts stem from different laboratories: compare values within a part only. Changes are numbered by the printed parent chain.

Study 1
Target: CCNA1, cyclin fold, Cln2 fusion (human)
Technique: yeast growth competition, sequencing
Medium: yeast
Setting: weak parent motif
Reference: not given
Direction: higher = stronger binding
Quantity: normalised enrichment score
Parent: FOXM1 docking peptide (human); PHLARPIKVESPP; partner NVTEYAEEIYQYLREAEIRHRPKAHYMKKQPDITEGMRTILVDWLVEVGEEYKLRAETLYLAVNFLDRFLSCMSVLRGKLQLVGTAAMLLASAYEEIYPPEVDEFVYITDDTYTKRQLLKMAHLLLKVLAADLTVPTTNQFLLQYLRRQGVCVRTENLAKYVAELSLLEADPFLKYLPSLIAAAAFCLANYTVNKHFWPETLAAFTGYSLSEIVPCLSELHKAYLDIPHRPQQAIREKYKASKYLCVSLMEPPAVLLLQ
H2A: -0.199
S11A: -0.128
P12A: -0.615
V9A: 0.126
L3A: 0.154
P1A: -0.301

Study 2
Target: Eukaryotic initiation factor 4A-I (EIF4A1, Homo sapiens, UniProt P60842, residues 1-406, full length assumed)
Sequence of UniProt P60842 (whole entry, looked up): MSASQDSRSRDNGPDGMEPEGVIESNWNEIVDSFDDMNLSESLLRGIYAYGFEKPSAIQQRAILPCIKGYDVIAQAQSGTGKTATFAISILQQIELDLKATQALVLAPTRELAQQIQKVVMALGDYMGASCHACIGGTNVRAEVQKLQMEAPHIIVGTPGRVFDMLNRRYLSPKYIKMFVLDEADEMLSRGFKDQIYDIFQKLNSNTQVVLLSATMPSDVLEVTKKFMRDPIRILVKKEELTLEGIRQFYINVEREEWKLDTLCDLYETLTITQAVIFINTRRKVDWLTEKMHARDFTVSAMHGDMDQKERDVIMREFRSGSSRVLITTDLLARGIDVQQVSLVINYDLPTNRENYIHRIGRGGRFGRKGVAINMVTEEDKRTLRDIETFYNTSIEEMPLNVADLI
Technique: RNA Bind-n-Seq
Molecule type: RNA
Medium: in vitro
Tested at: 15 pmol
Setting: 4-mer, random 30-nt RNA, single round
Added: 3 µM RocA, 2 mM AMP-PNP
Reference: mean of 4-mers
Direction: higher = stronger binding
Quantity: 4-mer enrichment Z-score
GUGA: 2.04
UAAU: 0.26
UACA: -1.09
CAGG: -0.0278
AGUA: 0.919
CUGG: 0.173
CACU: -1.35
GAUU: 0.508

Study 3
Target: Prothrombin, mature alpha-thrombin (F2, Homo sapiens, UniProt P00734)
Technique: aptamer microarray, sandwich
Molecule type: DNA with 2'F-ANA
Medium: in vitro
Tested at: 200 nM
Setting: whole 15-mer aptamer, many near background
Added: Cy3 exosite-II aptamer, 400 nM
Direction: higher = stronger binding
Quantity: mean fluorescence intensity
Oligonucleotide: GGTTGGTGTGGTTGG
2'F-ANA at 5 6 10 11 12 13 15: 50.4 a.u.
2'F-ANA at 1 2 6 13 14: 50.1 a.u.
2'F-ANA at 1 2 3 4 6 8 10 11 12 13: 70 a.u.
2'F-ANA at 3 4 5 7 8 9 15: 113 a.u.
2'F-ANA at 2 4 5 6 7 11 15: 56.5 a.u.
2'F-ANA at 3 4 8 11 12 13: 796 a.u.
2'F-ANA at 1 4 5 7 12 14 15: 48.5 a.u.
2'F-ANA at 1 4 5 6 10 11 13 14: 54.4 a.u.

Single results of other studies
AESICSYWL
z-score of log IC50 (HLA class I histocompatibility antigen, A alpha chain, allele A*80:01 (Homo sapiens, UniProt P04439); peptide-MHC binding; peptide; direction not given): 0.38

Excerpt of the above (study 1):
H2A: -0.199
S11A: -0.128
